Measured values collected from several papers.
Each numbered part is a random draw from the data of one study; scales do not carry over between parts. ± marks the error that the study gave. Values after ≈ are worked out from the molar mass of the structure shown.

Set 1 — time: 18 h; temperature: 37 °C
SMILES: CC[C@H](C)[C@H](NC(=O)[C@H](CCCCN)NC(=O)[C@H](CCC(N)=O)NC(=O)[C@H](Cc1ccccc1)NC(=O)[C@@H](NC(=O)[C@H](CCCCN)NC(=O)[C@H](CCCCN)NC(=O)[C@H](CC(C)C)NC(=O)[C@H](C)NC(=O)[C@H](CC(N)=O)NC(=O)[C@@H](N)CC(C)C)C(C)C)C(=O)N[C@@H](Cc1c[nH]cn1)C(N)=O
organism	test	system	MIC [µM]
Escherichia coli	broth microdilution	ATCC 25922	4 (≈ 5.75 µg/mL)
Listeria monocytogenes	broth microdilution	KCTC 3710	16 (≈ 23 µg/mL)
Staphylococcus aureus		MW2, resistant	8 (≈ 11.5 µg/mL)
Escherichia coli		CCARM 1238, resistant	4 (≈ 5.75 µg/mL)

Further values, each from its own experiment
TTR: Transthyretin (TTR, Homo sapiens, UniProt P02766)
Compound	target or system	test	conditions	quantity	result
CC[C@H](C)[C@H](NC(=O)[C@H](Cc1ccc(O)cc1)NC(=O)[C@@H]1CCCN1C(=O)[C@H](CCCNC(=N)N)NC(=O)[C@H](CCCNC(=N)N)NC(=O)[C@@H]1CCCN1C(=O)[C@H](CCCCN)NC(=O)[C@H](CC(N)=O)NC(=O)[C@H](CCC(=O)O)NC(=O)[C@H](Cc1ccc(O)cc1)NC(=O)[C@H](CC(C)C)NC(=O)[C@H](CCC(=O)O)NC(=O)CCOCCOCCOCCN=[N+]=[N-])C(=O)N[C@@H](CC(C)C)C(=O)O	TTR	binding		Kd	> 10000 nM
NC1CC1c1ccc(NC(=O)C(CC2CCCCC2)NC(=O)OCc2ccccc2)cc1 (centres unmarked)	NB-4 APL cells			IC50	30.3 ± 3.9 µM
Cc1n[nH]c(C)c1CCCOc1cc(OCCCc2cn(CCOCCOCCOCCC(=O)N[C@@H](CCCNC(=N)N)C(=O)NCC(=O)N[C@@H](CCCCN)C(=O)Nc3ccc4c(C)cc(=O)oc4c3)nn2)cc(C(=O)O)c1	TTR	binding		Kd	172 nM
CC[C@H](C)[C@H](NC(=O)[C@H](C)NC(=O)CNC(=O)[C@H](CCCCN)NC(=O)[C@H](CC(N)=O)NC(=O)[C@H](CO)NC(=O)CNC(=O)[C@@H](NC(=O)[C@H](CC(=O)O)NC(=O)[C@H](C)NC(=O)[C@H](Cc1ccccc1)NC(=O)[C@H](Cc1ccccc1)NC(=O)[C@@H](NC(=O)[C@H](CC(C)C)NC(=O)[C@H](CCCCN)NC(=O)[C@H](CCC(N)=O)NC(=O)[C@H](Cc1c[nH]cn1)NC(=O)[C@H](Cc1c[nH]cn1)NC(=O)[C@@H](NC(=O)[C@H](CCC(=O)O)NC(=O)[C@H](Cc1ccc(O)cc1)NC(=O)CNC(=O)[C@H](CO)NC(=O)[C@H](CC(=O)O)NC(=O)[C@H](Cc1c[nH]cn1)NC(=O)[C@H](CCCNC(=N)N)NC(=O)[C@H](Cc1ccccc1)NC(=O)[C@H](CCC(=O)O)NC(=O)[C@H](C)NC(=O)[C@@H](N)CC(=O)O)C(C)C)C(C)C)C(C)C)C(=O)N[C@H](C(=O)NCC(=O)N[C@@H](CC(C)C)C(=O)N[C@@H](CCSC)C(=O)N[C@H](C(=O)NCC(=O)NCC(=O)N[C@H](C(=O)N[C@H](C(=O)O)C(C)C)C(C)C)C(C)C)[C@@H](C)CC		fibrillization, reverse phase HPLC	2 weeks, pH 7.40, equimolar mixture supernatant	soluble peptide concentration	12.1 µM

Repeated from above (set 1):
organism	test	system	MIC [µM]
Escherichia coli		CCARM 1238, resistant	4 (≈ 5.75 µg/mL)
